Measurements of several laboratories.
Compare with care: the assays were run in different laboratories. Several values in a cell are separate wells, animals, samples, runs or records. ± gives the spread as reported.

Structure (SMILES)	tested on	assay	test system	setting	scale	quantity	result
COc1ccc([C@@H]2CC(=O)c3c(O)cc(O)cc3O2)cc1O	–	–	Sprague-Dawley rat, male, obese, urine	oral, 100 mg/kg of neohesperidin, 48 h, after β-glucuronidase/sulfatase, total	–	amount excreted in urine	142 ± 69.9 ng
O.O.O.O.O.O.[Cl-].[Cl-].[Co+2]	–	–	rat female, faeces	oral, 10 mg/kg single, day 2	baseline: vehicle control subtracted	cobalt in faeces	2.77 µg/g
CCCC(=O)c1ccccc1	–	–	–	pH 7.4	–	logD (chromatographic)	5.51
CC[C@H](C)[C@H](NC(=O)[C@H](Cc1ccc(O)cc1)NC(=O)[C@@H]1CCCN1C(=O)[C@H](CCCNC(=N)NC(=O)NCCOCCOCCNC(=O)CCCCCN1/C(=C/C=C/C=C/C2=[N+](CCCCS(=O)(=O)[O-])c3ccccc3C2(C)C)C(C)(C)c2cc(S(=O)(=O)O)ccc21)NC(=O)[C@@H](N)CCCNC(=N)N)C(=O)N[C@@H](CC(C)C)C(=O)O	–	stable, RP-HPLC	PBS	up to 48 h, pH 7.4, 22 °C	–	stability	stable
CN(C)C(=O)c1cc2cnc(Nc3ccc(N4CCNCC4)cn3)nc2n1C1CCCC1	–	measured: acute respiratory failure	HR+/HER2− advanced breast cancer patients	oral, dose not given, not drug-related	–	serious adverse event incidence	0.3%
CC[C@H](C)[C@H](NC(=O)[C@H](Cc1ccccc1)NC(=O)[C@H](CCC(=O)O)NC(=O)[C@H](CCCCN)NC(=O)[C@H](C)NC(=O)[C@H](C)NC(=O)[C@H](CCC(N)=O)NC(=O)CNC(=O)[C@H](CCC(=O)O)NC(=O)[C@H](CC(C)C)NC(=O)[C@H](Cc1ccc(O)cc1)NC(=O)[C@H](CO)NC(=O)[C@H](CO)NC(=O)[C@@H](NC(=O)[C@H](CC(=O)O)NC(=O)[C@H](CO)NC(=O)[C@@H](NC(=O)[C@H](Cc1ccccc1)NC(=O)[C@@H](NC(=O)CNC(=O)[C@H](CCC(=O)O)NC(=O)[C@H](C)NC(=O)N(N)Cc1c[nH]cn1)[C@@H](C)O)[C@@H](C)O)C(C)C)C(=O)N[C@@H](C)C(=O)N[C@@H](Cc1c[nH]c2ccccc12)C(=O)N[C@@H](CC(C)C)C(=O)N[C@H](C(=O)N[C@@H](CCCNC(=N)N)C(=O)NCC(=O)N[C@@H](CCCNC(=N)N)C(=O)NCC(=O)O)C(C)C	–	–	male ICR mice, plasma	intravenous bolus, 1 mg/kg	–	clearance	7.83 mL/min/kg and 6.19 mL/min/kg and 7.02 mL/min/kg
COc1ccc(C[C@@H]2NC(=O)[C@H]([C@@H](C)O)NC(=O)[C@@H]3[C@@H]4CCN3C(=O)[C@@H]3Cc5cn(c6ccc(F)cc56)CCCCCCN(Cc5ccc(cc5)CCNC(=O)[C@]5(C)CCCN5C2=O)C(=O)CCC(=O)N[C@@H](C)C(=O)N[C@H](CNC(=O)CCCCC[N+](C)(C)C)C(=O)N[C@@H](Cc2cccc(c2)CNC(=O)CO4)C(=O)N3)cc1	–	measured: Diarrhea	humans	concentration not given, Study-001	–	participants with adverse event	7.8%
C=CC(=O)N1CC[C@H](n2nc(C#Cc3cc(OC)cc(OC)c3)c3c(N)ncnc32)C1	–	measured: abdominal pain	healthy adults	oral, grade ≥3, pooled treatments	–	TEAE incidence	0%
COc1cc2c(Oc3ccc4[nH]c(C)cc4c3F)ccnc2cc1OCC1(N)CC1	–	measured: grade 1 or 2 blurred vision	paediatric high-risk refractory sarcoma	whole group	–	incidence of adverse event	2.9%
C[C@@H]1NC(=O)[C@H](CCCCNC(=O)CO/N=C/C(=O)NCCCC[C@@H]2NC(=O)[C@@H](Cc3ccccc3)NC(=O)[C@H](CC(=O)O)NC(=O)CNC(=O)[C@H](CCCNC(=N)N)NC2=O)NC(=O)CNC(=O)[C@@H]2CCCN2C(=O)[C@H](CCCCNC(=O)CO/N=C/C(=O)NCCCC[C@@H]2NC(=O)[C@@H](Cc3ccccc3)NC(=O)[C@H](CC(=O)O)NC(=O)CNC(=O)[C@H](CCCNC(=N)N)NC2=O)NC(=O)[C@H](CCCCNC(=O)CCNC(=O)CCNC(=O)CCNC(=O)[C@H](CCCCN)NC(=O)[C@H](Cc2ccccc2)NC(=O)CNC(=O)CN2CCCNCCNCCCNCC2)NC(=O)[C@H](CCCCNC(=O)CO/N=C/C(=O)NCCCC[C@@H]2NC(=O)[C@@H](Cc3ccccc3)NC(=O)[C@H](CC(=O)O)NC(=O)CNC(=O)[C@H](CCCNC(=N)N)NC2=O)NC(=O)CNC(=O)[C@@H]2CCCN2C(=O)[C@H](CCCCNC(=O)CO/N=C/C(=O)NCCCC[C@@H]2NC(=O)[C@@H](Cc3ccccc3)NC(=O)[C@H](CC(=O)O)NC(=O)CNC(=O)[C@H](CCCNC(=N)N)NC2=O)NC1=O [copper-64 labelled]	–	biodistribution after PET	mouse, U-87 MG tumour xenograft, blood	intravenous, 24 h	–	tissue uptake	0.1 ± 0.02 %ID/g
CN1CC[C@@H](c2c(O)cc(O)c3c(=O)cc(-c4ccc(C(F)(F)F)cc4Cl)oc23)[C@@H]1CO	–	measured: Anorexia	B-cell malignancies	oral, 100 mg, intermittent dosing	–	patients with adverse event	0%
C[C@@H](Oc1cc(-c2cnn(C3CCNCC3)c2)cnc1N)c1c(Cl)ccc(F)c1Cl	African green monkey cells	–	–	5 days	–	CC50	4.42 µM
CCc1ccc(CC/C=C/c2ccc3c(c2)C(=O)CC3)cc1	–	–	Sprague-Dawley rat, male, blood	oral, 450 mg/kg/day, 14 days	–	hematocrit	44.6%
Oc1cc2c(cc1O)[C@H]1c3ccccc3CN[C@@H]1CC2 (racemic)	African green monkey cells	–	–	5 days	–	CC50	18.6 µM
c1csc(CNc2cc[nH]n2)c1	–	micronucleus	CD-1 mouse Hsd:ICR(CD-1), female, bone marrow	oral, 1000 mg/kg/day, 3 days	–	PCE to total erythrocyte ratio	0.471
